{"data": "Experimental data from different studies", "B1": "Ras suppressor protein 1 (human); sequence looked up; chain SKSLKKLVEESREKNQPEVDMSDRGISNMLDVNGLFTLSHITQLVLSHNKLTMVPPNIAELKNLEVLNFFNNQIEELPTQISSLQKLKHLNLGMNRLNTLPRGFGSLPALEVLDLTYNNLSENSLPGNFFYLTTLRALYLSDNDFEILPPDIGKLTKLQILSLRDNDLISLPKEIGELTQLKELHIQGNRLTVLPPELGNLDLTGQKQVFKAENNPWVTPIADQFQLGVSHVFEYIRSETYKYLYGRHMQANPEPPKKNNDKSKKISRKPLAAKNR", "note": "Values joined by “and” are separate records of one study, mostly repeats; a detail may differ."}
{"Substance": "gentamicin sulfate", "tested on": "Staphylococcus aureus", "system": "ATCC 43300, resistant", "conditions": "18 h, 37 °C, LED light 10 min, 1.57 mW", "quantity": "MIC", "result": "128 µM"}
{"Substance": "DAPT", "tested on": "Staphylococcus aureus", "system": "ATCC 29213", "quantity": "MIC", "result": "1.5 µg/mL"}
{"Substance": "Polymyxin B", "tested on": "Staphylococcus aureus", "test": "DiSC3(5) fluorescence", "conditions": "concentration not given, 81 min", "scale": "higher = more depolarisation", "quantity": "membrane depolarisation", "result": "506 a.u. and 438 a.u. and 555 a.u."}
{"Substance": "Polymyxin B", "tested on": "Staphylococcus aureus", "conditions": "concentration not given, together with: MgCl2 1 mM", "scale": "reference: no added salt", "quantity": "MIC fold change", "result": "2 fold"}
{"Substance": "B1 (Ras suppressor protein 1)", "tested on": "PP6C (human)", "test": "co-immunoprecipitation, IP-MS", "system": "CYB5R4 knockout cells", "conditions": "concentration not given", "scale": "reference: CYB5R4 knockout over parental", "quantity": "log2 fold change", "result": -0.37}
{"Substance": "Polymyxin B", "tested on": "Staphylococcus aureus", "test": "broth microdilution", "system": "MRSA clinical isolate", "quantity": "MIC", "result": "> 32 µg/mL"}
{"Substance": "benzalkonium chloride", "tested on": "Staphylococcus aureus", "system": "SH1000 MSSA", "conditions": "tested up to 1 µM", "quantity": "MIC", "result": "4 µM"}
{"Substance": "colistin", "tested on": "Staphylococcus aureus", "system": "ATCC 25293, RPMI 1640 10% FBS", "conditions": "18 to 24 h, 37 °C", "quantity": "MIC", "result": "12.5 µM"}
{"Substance": "bacitracin", "tested on": "Staphylococcus aureus", "system": "CGMCC 1.9", "conditions": "concentration not given, 18 h, 37 °C", "quantity": "inhibition zone diameter", "result": "8 mm"}
{"Substance": "human alpha-actinin-2", "tested on": "CYB5R4 knockout human cells", "test": "PP4 interaction, 3xFLAG-PP4C IP-MS", "conditions": "concentration not given", "scale": "reference: CYB5R4 KO over parental", "quantity": "log2 fold change", "result": 0.77}
